Measurements collected from several papers.
Compare with care: the assays were run in different laboratories. Several values in a cell are separate wells, animals, samples, runs or records. ± gives the spread as reported.
Sequence of UniProt Q12809 (whole entry, looked up): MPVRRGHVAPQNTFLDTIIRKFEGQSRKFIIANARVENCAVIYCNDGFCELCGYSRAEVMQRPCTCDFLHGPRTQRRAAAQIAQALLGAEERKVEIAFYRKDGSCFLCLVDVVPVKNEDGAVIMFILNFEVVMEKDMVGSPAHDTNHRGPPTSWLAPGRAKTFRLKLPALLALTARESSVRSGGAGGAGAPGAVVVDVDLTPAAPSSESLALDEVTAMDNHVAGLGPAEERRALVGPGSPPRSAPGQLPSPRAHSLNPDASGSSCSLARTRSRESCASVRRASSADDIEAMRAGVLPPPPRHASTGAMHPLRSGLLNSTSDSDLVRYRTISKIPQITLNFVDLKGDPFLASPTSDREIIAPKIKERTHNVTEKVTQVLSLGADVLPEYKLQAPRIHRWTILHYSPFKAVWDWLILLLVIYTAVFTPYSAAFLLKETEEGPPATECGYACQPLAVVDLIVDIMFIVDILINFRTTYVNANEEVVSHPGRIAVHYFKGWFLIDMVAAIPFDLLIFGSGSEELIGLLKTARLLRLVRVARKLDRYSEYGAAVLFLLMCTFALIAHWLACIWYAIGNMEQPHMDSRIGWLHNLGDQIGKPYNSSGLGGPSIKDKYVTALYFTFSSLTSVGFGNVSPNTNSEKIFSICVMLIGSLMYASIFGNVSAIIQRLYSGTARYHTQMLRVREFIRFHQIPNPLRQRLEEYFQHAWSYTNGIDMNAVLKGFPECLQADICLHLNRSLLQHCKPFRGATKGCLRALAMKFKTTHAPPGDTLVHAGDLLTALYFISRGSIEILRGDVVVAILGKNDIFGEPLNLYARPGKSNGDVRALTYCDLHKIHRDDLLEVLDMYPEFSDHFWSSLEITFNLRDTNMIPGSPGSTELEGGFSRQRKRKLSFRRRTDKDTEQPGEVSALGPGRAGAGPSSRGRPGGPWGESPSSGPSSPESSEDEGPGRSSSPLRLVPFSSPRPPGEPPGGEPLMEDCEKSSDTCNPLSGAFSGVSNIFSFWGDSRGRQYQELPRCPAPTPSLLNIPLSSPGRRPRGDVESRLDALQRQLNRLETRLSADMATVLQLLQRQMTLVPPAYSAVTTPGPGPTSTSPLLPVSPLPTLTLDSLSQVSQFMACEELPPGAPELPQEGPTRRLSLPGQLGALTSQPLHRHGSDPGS

SMILES | tested on | test | system | conditions | scale | quantity | value
CC(C)C[C@H](NC(=O)[C@H](CC(=O)O)NC(=O)CNC(=O)[C@H](CCCNC(=N)N)NC(=O)[C@H](CC(C)C)NC(=O)[C@H](CC(N)=O)NC(=O)[C@@H]1CCCN1C(=O)[C@@H](NC(=O)[C@H](C)NC(=O)[C@H](CC(N)=O)NC(=O)CCOCCOCCOCCOCCOCCOCCOCCOCCOCCOCCOCCOCCOCCOCCOCCOCCOCCOCCOCCOCCOCCOCCOCCOCCOCCOCCOCCOCCNC(=O)CCOCCOCCOCCOCCOCCOCCOCCOCCOCCOCCOCCOCCOCCOCCOCCOCCOCCOCCOCCOCCOCCOCCOCCOCCOCCOCCOCCOCCNC(=O)c1ccc(F)cc1)C(C)C)C(=O)N[C@@H](CCC(N)=O)C(=O)N[C@H](C(=O)N[C@@H](CC(C)C)C(=O)N[C@@H](C)C(=O)N[C@@H](CCC(N)=O)C(=O)N[C@@H](CCCCN)C(=O)N[C@H](C(=O)N[C@@H](C)C(=O)N[C@@H](CCCNC(=N)N)C(=O)N[C@H](C(N)=O)[C@@H](C)O)C(C)C)C(C)C [fluorine-18 labelled] |  |  | male athymic nu/nu mouse, BxPC-3 xenograft, kidney | iv, 1 to 4 h |  | kidney uptake | ~42 %ID/g
CC[C@H](C)[C@H](NC(=O)[C@H](CC(C)C)NC(=O)[C@H](Cc1c[nH]c2ccccc12)NC(=O)[C@H](CCC(N)=O)NC(=O)[C@@H](NC(=O)[C@H](Cc1ccccc1)NC(=O)[C@H](C)NC(=O)[C@H](CCCCNC(=O)COCCOCCNC(=O)COCCOCCNC(=O)CC[C@H](NC(=O)CCCCCCCCCCCCCCCCCCC(=O)O)C(=O)O)NC(=O)[C@H](CCC(N)=O)NC(=O)[C@H](C)NC(=O)[C@@H](NC(=O)[C@H](CCCCN)NC(=O)[C@H](CC(=O)O)NC(=O)[C@H](CC(C)C)NC(=O)C(C)(C)NC(=O)[C@@H](NC(=O)[C@H](CO)NC(=O)[C@H](Cc1ccc(O)cc1)NC(=O)[C@H](CC(=O)O)NC(=O)[C@H](CO)NC(=O)[C@@H](NC(=O)[C@H](Cc1ccccc1)NC(=O)[C@@H](NC(=O)CNC(=O)[C@H](CCC(=O)O)NC(=O)C(C)(C)NC(=O)[C@@H](N)Cc1ccc(O)cc1)[C@@H](C)O)[C@@H](C)O)[C@@H](C)CC)[C@@H](C)CC)C(C)C)C(=O)N[C@@H](C)C(=O)NCC(=O)NCC(=O)N1CCC[C@H]1C(=O)N[C@@H](CO)C(=O)N[C@@H](CO)C(=O)NCC(=O)N[C@@H](C)C(=O)N1CCC[C@H]1C(=O)N1CCC[C@H]1C(=O)N1CCC[C@H]1C(=O)N[C@@H](CO)C(N)=O |  |  | healthy subjects, single ascending dose | 2.5 mg |  | adverse events (catheter site erythema) | 16.7%
Cn1cnc(Cn2c(=O)[nH]/c(=N\c3cc4cn(C)nc4cc3Cl)n(Cc3cc(F)c(F)cc3F)c2=O)n1 |  |  | human, normal renal function | oral, 375 mg, single dose, geometric mean |  | apparent volume of distribution (Vz/F) | 23.9 L
COP(=S)(OC)Oc1ccc([N+](=O)[O-])c(C)c1 | rat CYP2C | tolbutamide hydroxylation, non-competitive inhibitor | rat Sprague-Dawley, liver microsomes | 30 min, pH 7.4, together with: tolbutamide 1 to 10 mM |  | Ki | 36.1 ± 12.6 µM
CCN(CC)N=O |  |  | male Wistar rats | ip, 100 mg/kg weekly, 4 injections, hepatic fibrosis model |  | body weight | 301 ± 4 g
CC(C)C[C@H](NC(=O)CNC(=O)[C@H](CCCCN)NC(=O)[C@H](CC(C)C)NC(=O)[C@H](CC(C)C)NC(=O)[C@H](CC(C)C)NC(=O)[C@H](CCCCN)NC(=O)[C@@H](N)CCCCN)C(=O)N[C@@H](CC(C)C)C(=O)N[C@@H](CC(C)C)C(=O)N[C@@H](CC(C)C)C(=O)N[C@@H](CCCCN)C(=O)N[C@@H](CCCCN)C(=O)O | HEK-293T | cell death |  | 24 h, 10% cell death |  | lowest cytotoxic concentration | 256 µg/mL
CNC(=O)[C@@H](NC(=O)[C@H](CC(C)C)[C@H](O)C(=O)NO)C(C)(C)C | Daboia russelii venom proteases (SVMP) | protease activity, inhibitor | GA population | 0.01 µM, together with: azocasein substrate | baseline: venom alone | remaining activity | 97.3% and 97.6% and 98%
CC(=O)c1c(O)c(C)c(O)c(Cc2c(O)c3c(c(C(=O)/C=C/c4ccccc4)c2O)OC(C)(C)C=C3)c1O | KCNH2 (Homo sapiens, UniProt Q12809) | potassium current, whole-cell patch clamp | HEK293 expressing hERG1 | 4 µM, at 0 mV | baseline: control | activation rate acceleration | 1.5 ± 0.1 fold
Nc1ncnc2c([C@@H]3N[C@H](CO)[C@@H](O)[C@H]3O)c[nH]c12 | Middle East respiratory syndrome-related coronavirus | viral replication | Vero C1008, Jordan N3 | 12.5 µM |  | inhibition | 9.5%
CC[C@H](C)[C@H](NC(=O)[C@H](CC(C)C)NC(=O)[C@H](Cc1c[nH]c2ccccc12)NC(=O)[C@H](CCC(N)=O)NC(=O)[C@@H](NC(=O)[C@H](Cc1ccccc1)NC(=O)[C@H](C)NC(=O)[C@H](CCCCNC(=O)COCCOCCNC(=O)COCCOCCNC(=O)CC[C@H](NC(=O)CCCCCCCCCCCCCCCCCCC(=O)O)C(=O)O)NC(=O)[C@H](CCC(N)=O)NC(=O)[C@H](C)NC(=O)[C@@H](NC(=O)[C@H](CCCCN)NC(=O)[C@H](CC(=O)O)NC(=O)[C@H](CC(C)C)NC(=O)C(C)(C)NC(=O)[C@@H](NC(=O)[C@H](CO)NC(=O)[C@H](Cc1ccc(O)cc1)NC(=O)[C@H](CC(=O)O)NC(=O)[C@H](CO)NC(=O)[C@@H](NC(=O)[C@H](Cc1ccccc1)NC(=O)[C@@H](NC(=O)CNC(=O)[C@H](CCC(=O)O)NC(=O)CCNC(=O)C(C)(C)c1cc(F)cc(C#N)c1)[C@@H](C)O)[C@@H](C)O)[C@@H](C)CC)[C@@H](C)CC)C(C)C)C(=O)N[C@@H](C)C(=O)NCC(=O)NCC(=O)N1CCC[C@H]1C(=O)N[C@@H](CO)C(=O)N[C@@H](CO)C(=O)NCC(=O)N[C@@H](C)C(=O)N1CCC[C@H]1C(=O)N1CCC[C@H]1C(=O)N1CCC[C@H]1C(=O)N[C@@H](CO)C(N)=O |  | measured: Diarrhea | human with obesity or overweight | subcutaneous, up to 5 mg once weekly, multiple ascending dose |  | treatment-emergent adverse events | 50%
CC(C)(C)[C@H](NC(=O)C(F)(F)F)C(=O)N1C[C@H]2[C@@H]([C@H]1C(=O)N[C@H](C#N)C[C@@H]1CCNC1=O)C2(C)C |  |  | human, fasted | oral, 500 mg single dose, 28 days, no ritonavir |  | participants with related adverse events | 0%
CC[C@H](C)[C@H](NC(=O)[C@H](CC(C)C)NC(=O)[C@H](Cc1c[nH]c2ccccc12)NC(=O)[C@H](CCC(N)=O)NC(=O)[C@@H](NC(=O)[C@H](Cc1ccccc1)NC(=O)[C@H](C)NC(=O)[C@H](CCCCNC(=O)COCCOCCNC(=O)COCCOCCNC(=O)CC[C@H](NC(=O)CCCCCCCCCCCCCCCCCCC(=O)O)C(=O)O)NC(=O)[C@H](CCC(N)=O)NC(=O)[C@H](C)NC(=O)[C@@H](NC(=O)[C@H](CCCCN)NC(=O)[C@H](CC(=O)O)NC(=O)[C@H](CC(C)C)NC(=O)C(C)(C)NC(=O)[C@@H](NC(=O)[C@H](CO)NC(=O)[C@H](Cc1ccc(O)cc1)NC(=O)[C@H](CC(=O)O)NC(=O)[C@H](CO)NC(=O)[C@@H](NC(=O)[C@H](Cc1ccccc1)NC(=O)[C@@H](NC(=O)CNC(=O)[C@H](CCC(=O)O)NC(=O)C(C)(C)NC(=O)[C@@H](N)Cc1ccc(O)cc1)[C@@H](C)O)[C@@H](C)O)[C@@H](C)CC)[C@@H](C)CC)C(C)C)C(=O)N[C@@H](C)C(=O)NCC(=O)NCC(=O)N1CCC[C@H]1C(=O)N[C@@H](CO)C(=O)N[C@@H](CO)C(=O)NCC(=O)N[C@@H](C)C(=O)N1CCC[C@H]1C(=O)N1CCC[C@H]1C(=O)N1CCC[C@H]1C(=O)N[C@@H](CO)C(N)=O |  |  | human, plasma | subcutaneous, 10.0 mg once weekly, week 15, multiple doses |  | terminal half-life | 132 h

For quick reference, copied from above:
SMILES | tested on | test | system | conditions | scale | quantity | value
Nc1ncnc2c([C@@H]3N[C@H](CO)[C@@H](O)[C@H]3O)c[nH]c12 | Middle East respiratory syndrome-related coronavirus | viral replication | Vero C1008, Jordan N3 | 12.5 µM |  | inhibition | 9.5%
CC(C)C[C@H](NC(=O)CNC(=O)[C@H](CCCCN)NC(=O)[C@H](CC(C)C)NC(=O)[C@H](CC(C)C)NC(=O)[C@H](CC(C)C)NC(=O)[C@H](CCCCN)NC(=O)[C@@H](N)CCCCN)C(=O)N[C@@H](CC(C)C)C(=O)N[C@@H](CC(C)C)C(=O)N[C@@H](CC(C)C)C(=O)N[C@@H](CCCCN)C(=O)N[C@@H](CCCCN)C(=O)O | HEK-293T | cell death |  | 24 h, 10% cell death |  | lowest cytotoxic concentration | 256 µg/mL
